Published values gathered from unrelated publications.
Protocols differ between the studies behind these lines. ± marks the error that the study gave.
HLA class I histocompatibility antigen, A alpha chain allele A*02:01: HLA class I histocompatibility antigen, A alpha chain, allele A*02:01 (Homo sapiens, UniProt P04439)
HLA class I histocompatibility antigen, A alpha chain allele A*24:02: HLA class I histocompatibility antigen, A alpha chain, allele A*24:02 (Homo sapiens, UniProt P04439)
HLA class I histocompatibility antigen, A alpha chain allele A*01:01: HLA class I histocompatibility antigen, A alpha chain, allele A*01:01 (Homo sapiens, UniProt P04439)
Tubulin alpha-1B chain/TUBB2B: Tubulin alpha-1B chain/TUBB2B (Bos taurus, UniProt P81947+Q6B856)
UniProt P81947, sequence (whole entry, looked up): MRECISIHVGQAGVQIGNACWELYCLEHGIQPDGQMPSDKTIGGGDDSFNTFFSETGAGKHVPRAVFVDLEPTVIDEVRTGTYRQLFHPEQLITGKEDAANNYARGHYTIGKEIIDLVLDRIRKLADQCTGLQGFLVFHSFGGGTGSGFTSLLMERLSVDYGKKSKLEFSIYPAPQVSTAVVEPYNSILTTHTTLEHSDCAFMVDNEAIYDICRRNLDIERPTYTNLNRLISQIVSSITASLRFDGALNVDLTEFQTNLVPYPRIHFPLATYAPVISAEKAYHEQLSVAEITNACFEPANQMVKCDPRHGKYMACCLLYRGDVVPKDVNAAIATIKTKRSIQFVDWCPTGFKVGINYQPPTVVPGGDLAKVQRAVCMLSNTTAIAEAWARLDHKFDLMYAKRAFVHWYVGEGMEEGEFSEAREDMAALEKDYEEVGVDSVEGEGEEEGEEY
UniProt Q6B856, sequence (whole entry, looked up): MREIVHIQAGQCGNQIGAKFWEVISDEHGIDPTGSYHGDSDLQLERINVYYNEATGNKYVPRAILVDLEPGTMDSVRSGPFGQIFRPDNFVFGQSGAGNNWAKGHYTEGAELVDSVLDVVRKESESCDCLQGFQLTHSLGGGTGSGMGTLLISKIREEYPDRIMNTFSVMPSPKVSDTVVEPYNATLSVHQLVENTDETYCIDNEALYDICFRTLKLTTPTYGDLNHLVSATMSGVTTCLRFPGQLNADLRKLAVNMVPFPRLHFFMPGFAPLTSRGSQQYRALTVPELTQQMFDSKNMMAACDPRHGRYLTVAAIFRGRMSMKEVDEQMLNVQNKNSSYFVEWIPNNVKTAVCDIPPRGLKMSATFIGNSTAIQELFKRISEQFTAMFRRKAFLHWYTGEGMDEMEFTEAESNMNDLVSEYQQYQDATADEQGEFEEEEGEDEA
UniProt P03023, sequence (whole entry, unmodified, looked up): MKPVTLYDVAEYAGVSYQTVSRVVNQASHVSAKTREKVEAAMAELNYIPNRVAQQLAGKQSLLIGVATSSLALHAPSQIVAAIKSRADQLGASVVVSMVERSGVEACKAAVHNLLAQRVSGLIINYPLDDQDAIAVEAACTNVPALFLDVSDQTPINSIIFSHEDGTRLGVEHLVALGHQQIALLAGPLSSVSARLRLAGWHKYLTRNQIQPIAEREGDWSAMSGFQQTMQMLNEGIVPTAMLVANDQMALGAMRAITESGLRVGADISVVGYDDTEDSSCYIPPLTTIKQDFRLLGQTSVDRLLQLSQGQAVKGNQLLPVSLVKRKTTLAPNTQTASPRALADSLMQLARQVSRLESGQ
UniProt P08913, sequence (whole entry, looked up): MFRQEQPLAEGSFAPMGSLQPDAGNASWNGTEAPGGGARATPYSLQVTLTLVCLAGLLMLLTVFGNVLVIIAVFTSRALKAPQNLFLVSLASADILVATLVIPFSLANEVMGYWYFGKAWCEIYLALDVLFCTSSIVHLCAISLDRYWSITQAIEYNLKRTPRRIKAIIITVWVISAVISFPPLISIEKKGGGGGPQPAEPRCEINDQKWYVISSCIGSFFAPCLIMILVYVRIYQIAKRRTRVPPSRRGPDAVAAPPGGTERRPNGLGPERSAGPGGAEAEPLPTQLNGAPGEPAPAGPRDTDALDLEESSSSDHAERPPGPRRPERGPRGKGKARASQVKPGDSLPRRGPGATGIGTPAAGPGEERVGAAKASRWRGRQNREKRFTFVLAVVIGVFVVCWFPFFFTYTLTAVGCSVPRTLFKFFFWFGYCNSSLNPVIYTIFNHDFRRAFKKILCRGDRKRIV
UniProt Q6JQN1, sequence (whole entry, looked up): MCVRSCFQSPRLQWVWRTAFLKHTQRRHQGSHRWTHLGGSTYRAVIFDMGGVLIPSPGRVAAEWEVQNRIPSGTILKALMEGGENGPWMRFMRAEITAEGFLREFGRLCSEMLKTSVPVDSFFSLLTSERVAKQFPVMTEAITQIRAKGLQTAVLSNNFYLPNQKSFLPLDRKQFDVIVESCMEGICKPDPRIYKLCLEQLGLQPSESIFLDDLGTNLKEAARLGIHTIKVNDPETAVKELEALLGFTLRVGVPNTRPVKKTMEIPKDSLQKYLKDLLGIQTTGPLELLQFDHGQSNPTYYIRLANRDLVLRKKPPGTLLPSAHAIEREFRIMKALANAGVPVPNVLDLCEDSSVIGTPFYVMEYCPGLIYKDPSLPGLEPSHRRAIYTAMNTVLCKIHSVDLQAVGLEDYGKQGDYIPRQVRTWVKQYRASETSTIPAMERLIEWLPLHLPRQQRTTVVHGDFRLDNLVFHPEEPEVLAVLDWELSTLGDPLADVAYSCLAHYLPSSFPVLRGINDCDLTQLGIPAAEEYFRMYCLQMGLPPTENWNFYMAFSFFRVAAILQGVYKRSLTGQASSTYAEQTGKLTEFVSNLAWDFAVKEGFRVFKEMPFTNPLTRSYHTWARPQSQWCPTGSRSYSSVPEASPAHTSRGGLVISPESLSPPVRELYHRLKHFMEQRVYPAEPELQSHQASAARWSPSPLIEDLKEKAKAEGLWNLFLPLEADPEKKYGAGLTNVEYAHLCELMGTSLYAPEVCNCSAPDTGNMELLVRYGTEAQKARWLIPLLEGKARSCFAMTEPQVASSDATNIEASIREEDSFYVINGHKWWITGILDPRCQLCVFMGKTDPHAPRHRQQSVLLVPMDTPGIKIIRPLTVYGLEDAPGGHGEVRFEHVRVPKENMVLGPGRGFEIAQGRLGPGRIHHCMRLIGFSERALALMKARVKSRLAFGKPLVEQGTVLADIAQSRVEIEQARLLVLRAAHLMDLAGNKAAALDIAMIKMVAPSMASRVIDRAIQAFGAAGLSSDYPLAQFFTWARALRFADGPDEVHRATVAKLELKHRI
UniProt P56817, sequence (whole entry, looked up): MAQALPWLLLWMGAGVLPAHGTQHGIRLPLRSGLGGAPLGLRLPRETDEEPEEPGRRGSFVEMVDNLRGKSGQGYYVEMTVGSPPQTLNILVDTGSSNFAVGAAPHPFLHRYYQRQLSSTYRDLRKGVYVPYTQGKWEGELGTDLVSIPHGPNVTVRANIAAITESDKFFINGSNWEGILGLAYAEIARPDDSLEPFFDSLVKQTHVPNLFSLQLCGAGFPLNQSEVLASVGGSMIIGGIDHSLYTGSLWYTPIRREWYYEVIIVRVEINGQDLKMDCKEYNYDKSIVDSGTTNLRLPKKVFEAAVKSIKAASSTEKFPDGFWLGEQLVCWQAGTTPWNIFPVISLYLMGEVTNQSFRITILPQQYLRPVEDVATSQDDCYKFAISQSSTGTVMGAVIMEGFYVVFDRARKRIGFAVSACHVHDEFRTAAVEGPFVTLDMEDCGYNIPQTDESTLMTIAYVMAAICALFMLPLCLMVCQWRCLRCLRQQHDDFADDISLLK
UniProt P56494, sequence (whole entry, looked up): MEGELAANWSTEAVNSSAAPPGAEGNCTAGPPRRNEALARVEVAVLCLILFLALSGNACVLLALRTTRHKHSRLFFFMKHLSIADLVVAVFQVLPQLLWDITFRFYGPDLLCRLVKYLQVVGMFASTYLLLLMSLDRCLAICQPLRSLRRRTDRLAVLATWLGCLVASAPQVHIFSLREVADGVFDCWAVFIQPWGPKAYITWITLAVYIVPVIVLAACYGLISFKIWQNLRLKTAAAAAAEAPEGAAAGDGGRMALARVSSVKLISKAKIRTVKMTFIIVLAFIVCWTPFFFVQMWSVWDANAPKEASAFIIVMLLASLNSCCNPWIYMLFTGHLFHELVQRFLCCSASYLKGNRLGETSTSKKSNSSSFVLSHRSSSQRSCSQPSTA
UniProt P11234, sequence (whole entry, looked up): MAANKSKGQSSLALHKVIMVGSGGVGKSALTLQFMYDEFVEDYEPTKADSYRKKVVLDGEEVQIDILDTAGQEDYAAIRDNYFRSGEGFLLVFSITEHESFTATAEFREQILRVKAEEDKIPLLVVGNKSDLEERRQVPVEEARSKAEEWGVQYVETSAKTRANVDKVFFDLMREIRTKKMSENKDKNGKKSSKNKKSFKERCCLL
UniProt P09467, sequence (whole entry, looked up): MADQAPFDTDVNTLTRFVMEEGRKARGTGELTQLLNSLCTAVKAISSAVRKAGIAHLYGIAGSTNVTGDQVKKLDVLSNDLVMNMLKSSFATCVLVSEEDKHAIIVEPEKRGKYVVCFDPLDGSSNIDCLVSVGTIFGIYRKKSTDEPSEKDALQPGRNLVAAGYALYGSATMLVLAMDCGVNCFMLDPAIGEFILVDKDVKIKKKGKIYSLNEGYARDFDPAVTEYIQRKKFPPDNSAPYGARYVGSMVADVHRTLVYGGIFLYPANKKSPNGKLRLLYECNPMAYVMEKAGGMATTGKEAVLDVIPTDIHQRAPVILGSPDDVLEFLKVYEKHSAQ
UniProt P08684, sequence (whole entry, looked up): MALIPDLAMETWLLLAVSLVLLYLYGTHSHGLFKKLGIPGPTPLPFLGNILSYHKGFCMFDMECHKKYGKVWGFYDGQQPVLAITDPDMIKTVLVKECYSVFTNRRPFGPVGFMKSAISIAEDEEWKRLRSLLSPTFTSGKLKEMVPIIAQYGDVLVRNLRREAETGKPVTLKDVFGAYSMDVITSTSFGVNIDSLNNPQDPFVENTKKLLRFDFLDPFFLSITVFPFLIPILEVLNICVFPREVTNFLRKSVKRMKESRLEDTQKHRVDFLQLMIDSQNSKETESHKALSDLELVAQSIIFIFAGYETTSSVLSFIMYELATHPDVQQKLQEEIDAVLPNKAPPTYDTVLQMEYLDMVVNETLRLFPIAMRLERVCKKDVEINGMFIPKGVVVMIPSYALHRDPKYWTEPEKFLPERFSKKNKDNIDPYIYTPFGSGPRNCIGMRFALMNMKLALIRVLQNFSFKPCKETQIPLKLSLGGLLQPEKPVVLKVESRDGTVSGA

Nc1ncnc2c1ncn2[C@@H]1O[C@H](COP(=O)(O)O)[C@@H](O)[C@H]1O — IC50 (Fructose-1,6-bisphosphatase 1 (Homo sapiens, UniProt P09467); enzyme activity, inhibitor): 7.97 µM
CC(C)C[C@H](NC(=O)[C@H](CO)NC(=O)[C@H](CO)NC(=O)[C@H](Cc1ccccc1)NC(=O)[C@H](CCC(=O)O)NC(=O)[C@@H](N)CO)C(=O)N1CCC[C@H]1C(=O)N[C@@H](CO)C(=O)N[C@@H](Cc1ccc(O)cc1)C(=O)O — IC50 (HLA class I histocompatibility antigen, A alpha chain, allele A*26:01 (Homo sapiens, UniProt P04439); peptide-MHC binding, radioligand competition binding): 0.875 µM
CC(C)S[C@@H]1O[C@H](CO)[C@H](O)[C@H](O)[C@H]1O — IC50 (lacI (Escherichia coli, UniProt P03023, D149A/N125A); inhibitor): 17 µM
O=S(=O)(F)c1ccc(S(=O)(=O)Nc2cc(F)cc(C3CC3)c2)c2c1CCCC2 — IC50 (RALB (Homo sapiens, UniProt P11234)): 2 µM
COc1ccc2cc3[n+](cc2c1OC)CCc1cc2c(cc1-3)OCO2 — IC50 (uncharacterized protein (Drosophila suzukii, UniProt A0AB39ZCT4); binding, bis-ANS competition fluorescence; pH 7.4, added: bis-ANS): 13.4 µM
COc1cc(Nc2ncc(F)c(Nc3ccc4c(n3)NC(=O)C(C)(C)O4)n2)cc(OC)c1OC — IC50 (IP3 receptor): > 10 µM
Nc1c2c(nc3c1C(c1cccc([N+](=O)[O-])c1)c1ccc(OCC(=O)c4ccc(Cl)cc4)cc1O3)CCCC2 (stereo not shown) — IC50 (Beta-secretase 1 (BACE1, Homo sapiens, UniProt P56817); enzyme activity, inhibitor): 0.382 µM
CC[C@H](C)[C@H](NC(=O)[C@@H](NC(=O)[C@H](CCCCN)NC(=O)[C@H](Cc1c[nH]cn1)NC(=O)[C@H](Cc1ccc(O)cc1)NC(=O)[C@H](CCSC)NC(=O)[C@@H](N)CCCNC(=N)N)C(C)C)C(=O)N[C@H](C(=O)N[C@@H](Cc1ccccc1)C(=O)O)[C@@H](C)O — IC50 (HLA class I histocompatibility antigen, A alpha chain allele A*02:01; binding): 1.6 µM
Cc1c(C2(c3ccc(C(F)(F)F)nc3)CC2)c[nH]c1C(=O)NC(C)c1c[nH]cn1 (stereo not shown) — IC50 (Cytochrome P450 3A4 (CYP3A4, Homo sapiens, UniProt P08684); enzyme activity, inhibitor): 0.86 µM
COc1ncccc1-c1cnn2ccc(N3CCN(C(=O)OC(C)C)CC3)nc12 — IC50 (Alpha-1B adrenergic receptor (ADRA1B, Homo sapiens, UniProt P35368); liability screen): > 30 µM
NC(=O)CC[C@@H]1NC(=O)[C@H](Cc2ccccc2)NC(=O)[C@H](Cc2ccc(O)cc2)NC(=O)[C@@H](N)CSSC[C@@H](C(=O)N2CCC[C@H]2C(=O)N[C@@H](CCCN=C(N)N)C(=O)NCC(N)=O)NC(=O)[C@H](CC(N)=O)NC1=O — IC50 (Oxytocin receptor (Macaca mulatta, UniProt P56494); membrane hyperpolarisation, FMP blue membrane potential dye; CHO cells; added: pertussis toxin 150 ng/mL, 24 h pretreatment): 0.011 µM
CC[C@H](C)[C@H](NC(=O)[C@@H](NC(=O)[C@H](Cc1c[nH]c2ccccc12)NC(=O)[C@H](CC(=O)O)NC(=O)[C@@H](NC(=O)[C@H](CCCNC(=N)N)NC(=O)[C@@H](N)CCCCN)C(C)C)[C@@H](C)O)C(=O)N[C@@H](CCC(=O)O)C(=O)N[C@@H](Cc1ccc(O)cc1)C(=O)O — IC50 (HLA class I histocompatibility antigen, A alpha chain allele A*02:01; peptide-MHC binding, radioligand competition binding): > 70 µM
CSCC[C@H](NC(=O)[C@@H](N)CCCCN)C(=O)N[C@@H](Cc1ccc(O)cc1)C(=O)N1CCC[C@H]1C(=O)N[C@H](C(=O)NCC(=O)N[C@@H](Cc1ccccc1)C(=O)N[C@H](C(=O)N[C@@H](Cc1ccc(O)cc1)C(=O)O)[C@@H](C)O)[C@@H](C)O — IC50 (HLA class I histocompatibility antigen, A alpha chain allele A*02:01; binding): 18.7 µM
O=C(Nc1cccnc1)N1CCC(Cc2cccc(Oc3ccc(C(F)(F)F)cn3)c2)CC1 — IC50 (Fatty-acid amide hydrolase 1 (Faah, Rattus norvegicus, UniProt P97612); inhibitor; added: FP-biotin 1 µM): < 0.005 µM
C[C@H]1COCCN1c1nc(NCc2cccnc2C(F)(F)F)c2cccnc2n1 — IC50 (human L-type calcium channel; verapamil site): > 100 µM
Cc1cc2c(C(C)C)c(O)c(O)c(C=O)c2c(O)c1-c1c(C)cc2c(C(C)C)c(O)c(O)c(C=O)c2c1O — IC50 (Voltage-dependent T-type calcium channel subunit alpha-1I (CACNA1I, Homo sapiens, UniProt Q9P0X4); calcium current, blocker, whole-cell patch clamp; human channel-expressing cells): 10.5 ± 0.9 µM
CC[C@H](C)[C@H](NC(=O)[C@@H]1CCCN1C(=O)[C@H](CO)NC(=O)[C@H](CCSC)NC(=O)[C@H](CCC(N)=O)NC(=O)[C@@H](N)CCCCN)C(=O)N[C@@H](Cc1c[nH]c2ccccc12)C(=O)N[C@H](C(=O)N[C@@H](Cc1ccc(O)cc1)C(=O)O)[C@@H](C)O — IC50 (HLA class I histocompatibility antigen, A alpha chain allele A*24:02; binding): 43.4 µM
O=P(O)(O)Oc1cc(OP(=O)(O)O)c(-c2cc(OP(=O)(O)O)c(OP(=O)(O)O)cc2OP(=O)(O)O)cc1OP(=O)(O)O — IC50 (Type II inositol 1,4,5-trisphosphate 5-phosphatase (Homo sapiens, UniProt P32019); enzyme activity, inhibitor, malachite green phosphate; 5 min, 30 °C, added: Ins(1,4,5)P3 50 µM): 5.4 ± 0.7 µM
CC[C@H](C)[C@H](NC(=O)[C@@H]1CCCN1C(=O)[C@H](Cc1c[nH]cn1)NC(=O)[C@H](CCCCN)NC(=O)[C@H](Cc1ccccc1)NC(=O)[C@H](CC(C)C)NC(=O)[C@@H](N)CCCCN)C(=O)N[C@@H](CCC(N)=O)C(=O)N[C@@H](CC(C)C)C(=O)O — IC50 (HLA class I histocompatibility antigen, A alpha chain allele A*24:02; binding): 3.46 µM
C[C@H](CCCOS(=O)(=O)O)[C@H]1CC[C@H]2[C@@H]3CC[C@H]4C[C@@H](O)CC[C@]4(C)[C@H]3CC[C@]12C — IC50 (Alpha-2A adrenergic receptor (ADRA2A, Homo sapiens, UniProt P08913); antagonist): 1.99 µM
CC[C@H](C)[C@H](NC(=O)[C@H](Cc1c[nH]cn1)NC(=O)[C@@H]1CCCN1C(=O)[C@H](Cc1ccccc1)NC(=O)[C@H](CC(C)C)NC(=O)[C@H](C)N)C(=O)N[C@@H](CCSC)C(=O)N[C@H](C(=O)N[C@@H](Cc1ccc(O)cc1)C(=O)O)[C@@H](C)O — IC50 (HLA class I histocompatibility antigen, A alpha chain allele A*01:01; binding): 26.1 µM
C[C@H]1CN(c2n[nH]c3nc(N[C@H]4CC[C@H](NS(=O)(=O)CCC(F)(F)F)CC4)ncc23)CCO1 — IC50 (Acyl-CoA dehydrogenase family member 10 (ACAD10, Homo sapiens, UniProt Q6JQN1); biochemical): ≥ 20 µM
CSCC[C@H](NC(=O)[C@@H](N)Cc1ccc(O)cc1)C(=O)N[C@@H](CC(=O)O)C(=O)N[C@@H](CO)C(=O)N[C@@H](Cc1c[nH]cn1)C(=O)NCC(=O)N[C@@H](Cc1ccccc1)C(=O)N[C@@H](CO)C(=O)N[C@@H](Cc1ccccc1)C(=O)O — IC50 (HLA class I histocompatibility antigen, A alpha chain allele A*24:02; binding): 0.22 µM
COc1ccc2c(c1NC(=O)OCc1ccc(NC(=O)CCCCCN3C(=O)C=CC3=O)cc1)CCCC=C2c1cc(OC)c(OC)c(OC)c1 — IC50 (Tubulin alpha-1B chain/TUBB2B; tubulin polymerization, inhibitor, turbidimetric; 20 min, 30 °C, added: tubulin 10 µM): 13 ± 1 µM
CSCC[C@H](NC(=O)[C@H](CC(C)C)NC(=O)[C@@H](N)CCCNC(=N)N)C(=O)N[C@@H](CC(=O)O)C(=O)N[C@@H](CCCCN)C(=O)N1CCC[C@H]1C(=O)N[C@@H](Cc1c[nH]cn1)C(=O)N[C@@H](CO)C(=O)N[C@@H](Cc1ccc(O)cc1)C(=O)O — IC50 (HLA class I histocompatibility antigen, A alpha chain allele A*01:01; binding): 34.8 µM
COc1ccc(-c2ccc3c(C(=O)c4cc(OC)c(OC)c(OC)c4)c[nH]c3c2)cc1O — IC50 (Tubulin alpha-1B chain/TUBB2B; tubulin polymerization, inhibitor, turbidimetric; added: 10 µM bovine tubulin): > 20 µM
CSCC[C@H](NC(=O)[C@@H](N)CCCCN)C(=O)N[C@@H](Cc1ccccc1)C(=O)N[C@@H](CC(=O)O)C(=O)N[C@@H](CCC(=O)O)C(=O)N[C@@H](Cc1ccccc1)C(=O)N[C@@H](Cc1c[nH]cn1)C(=O)N[C@H](C(=O)N[C@@H](Cc1ccc(O)cc1)C(=O)O)C(C)C — IC50 (HLA class I histocompatibility antigen, A alpha chain allele A*01:01; binding): 49.4 µM
CC(C)C[C@H](NC(=O)[C@H](CCC(N)=O)NC(=O)[C@H](CC(=O)O)NC(=O)[C@H](C)NC(=O)[C@@H](N)Cc1c[nH]cn1)C(=O)N[C@H](C(=O)N1CCC[C@H]1C(=O)N[C@H](C(=O)N[C@@H](Cc1c[nH]c2ccccc12)C(=O)O)[C@@H](C)O)[C@@H](C)O — IC50 (HLA class I histocompatibility antigen, A alpha chain allele A*02:01; peptide-MHC binding, radioligand competition binding): > 70 µM
